Measurements of several laboratories.
Parts stem from different laboratories: compare values within a part only.

Series 1 — technique: universal PBM; form: double-stranded DNA, one strand shown; matrix: in vitro; concentration: 600 nM; reading: higher = stronger binding
Target: Sal-like protein 4, full length isoform A (SALL4, Homo sapiens, UniProt Q9UJQ4, residues 1-1053)
Sequence of UniProt Q9UJQ4 (whole entry, looked up): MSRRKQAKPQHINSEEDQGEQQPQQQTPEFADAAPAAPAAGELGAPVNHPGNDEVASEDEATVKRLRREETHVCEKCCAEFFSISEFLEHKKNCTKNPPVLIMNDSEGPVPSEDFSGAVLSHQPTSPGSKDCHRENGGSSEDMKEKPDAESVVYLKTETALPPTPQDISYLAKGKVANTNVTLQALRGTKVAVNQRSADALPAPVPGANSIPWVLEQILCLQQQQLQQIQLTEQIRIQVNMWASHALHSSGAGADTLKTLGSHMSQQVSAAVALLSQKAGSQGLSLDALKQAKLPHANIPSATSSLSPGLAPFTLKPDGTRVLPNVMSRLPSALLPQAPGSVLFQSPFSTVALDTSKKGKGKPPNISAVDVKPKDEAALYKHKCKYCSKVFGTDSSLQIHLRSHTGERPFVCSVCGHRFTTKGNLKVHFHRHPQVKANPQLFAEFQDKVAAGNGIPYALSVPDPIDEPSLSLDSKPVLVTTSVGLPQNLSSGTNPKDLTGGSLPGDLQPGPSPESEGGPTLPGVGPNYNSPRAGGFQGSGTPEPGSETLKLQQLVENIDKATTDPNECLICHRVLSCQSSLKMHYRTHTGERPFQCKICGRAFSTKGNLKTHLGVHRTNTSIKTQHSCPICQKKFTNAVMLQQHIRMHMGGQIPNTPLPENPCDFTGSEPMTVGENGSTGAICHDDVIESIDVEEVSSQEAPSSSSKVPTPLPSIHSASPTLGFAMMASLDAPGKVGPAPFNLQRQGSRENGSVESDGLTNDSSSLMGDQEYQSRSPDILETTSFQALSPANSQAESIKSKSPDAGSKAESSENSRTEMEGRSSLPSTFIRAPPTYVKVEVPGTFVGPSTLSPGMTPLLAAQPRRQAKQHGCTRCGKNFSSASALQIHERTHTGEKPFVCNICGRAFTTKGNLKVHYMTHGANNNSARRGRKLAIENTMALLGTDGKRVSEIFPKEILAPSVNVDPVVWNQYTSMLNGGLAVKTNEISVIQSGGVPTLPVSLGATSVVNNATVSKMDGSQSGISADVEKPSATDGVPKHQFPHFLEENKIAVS
Notes: 8-mer, flanks averaged, mean of replicates
Strand | E-score
CTACAAGC | -0.17
GAGCGCGC | -0.219
ATCAACCA | 0.069
CATTAGCA | 0.118
AATCTAGA | 0.167
CTCCCAAC | -0.12
AGCTATCG | 0.00202
TCCGCTCA | -0.19

Series 2 — technique: protein binding microarray; form: double-stranded DNA, one strand shown; matrix: in vitro; concentration: not given; reference: not given; reading: higher = stronger binding
Target: Histone acetyltransferase KAT6A, both winged helices, GST fusion (KAT6A, Homo sapiens, UniProt Q92794, residues 1-181)
Notes: 8-mer, flanks averaged, mean of 2 arrays, mostly near background
Construct (chain): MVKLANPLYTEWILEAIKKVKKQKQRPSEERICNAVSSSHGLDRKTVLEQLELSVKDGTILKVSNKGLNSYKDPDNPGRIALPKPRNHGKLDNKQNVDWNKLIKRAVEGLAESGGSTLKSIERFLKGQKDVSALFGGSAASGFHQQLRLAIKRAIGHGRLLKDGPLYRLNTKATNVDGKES
Strand | E-score
GTCTGGCA | -0.204
CCTTAGCA | -0.086
TCTTAGAA | 0.00826
CATTACTA | -0.0438
ACTCCGCT | 0.075
AACTATCG | -0.00788
CCTCCGGC | 0.117
CTATCAAA | -0.131

Series 3 — organism: SARS-CoV-2; observed: cytopathic effect; cells: Vero E6; concentration: 10 µM
Compound | inhibition
O=C1C(Cl)=C(Cl)C(=O)C(Cl)=C1Cl | -25.1%
CCN(CC)c1ccc(C(=C2C=CC(=[N+](CC)CC)C=C2)c2ccccc2)cc1 | -43.2%
C[C@H]1COC2=C1C(=O)C(=O)c1c2ccc2c1CCCC2(C)C | -11.7%

Series 4 — technique: protein-binding microarray; form: double-stranded DNA, one strand shown; matrix: in vitro; concentration: 2540 nM top; notes: 60-bp whole probe; with: salmon DNA 0.4 mg/ml; reference: random background probes; reading: higher = stronger binding; all sequences stand within: GCCTAGCAC … GTCTTGATTCGCTTGACGCTGCTG
Target: Interferon regulatory factor 3, full length, phosphomimetic (IRF3, Homo sapiens, UniProt Q14653, residues 1-427, S386D/S396D/S398D/S402D/T404D/S405D)
Target sequence (chain): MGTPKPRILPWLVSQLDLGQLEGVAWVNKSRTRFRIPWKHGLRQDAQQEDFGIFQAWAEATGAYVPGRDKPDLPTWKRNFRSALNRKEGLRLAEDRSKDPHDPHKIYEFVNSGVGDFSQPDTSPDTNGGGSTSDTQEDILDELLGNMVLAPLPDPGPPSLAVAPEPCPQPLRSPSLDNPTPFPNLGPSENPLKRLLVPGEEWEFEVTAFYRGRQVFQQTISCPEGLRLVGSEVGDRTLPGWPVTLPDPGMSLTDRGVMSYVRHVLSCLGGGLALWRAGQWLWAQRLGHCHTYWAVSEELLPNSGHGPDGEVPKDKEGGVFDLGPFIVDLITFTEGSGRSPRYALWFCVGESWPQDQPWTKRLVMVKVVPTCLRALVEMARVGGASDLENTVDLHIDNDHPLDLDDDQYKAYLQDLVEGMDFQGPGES
Strand | fitted relative affinity [z-score]
TAAGATTTCAGTTTCGATTAGTGCTAG | 6.05
TTAGGTTTCGGACGGGGTTAGTGCTAG | 2.09
TTAGATATCGGGTATCGACTAGTGCTA | -0.0695
TTAGGATTCGGTATCGGTTAGTGCTAG | 4.53
GAAGAACTGAGTTTCGAGACGTGCTAG | 1.26
GACGGTTTCCTTATCCTAACGTGCTAG | 7.97
TTGGGTTTCGGTATCGGTTAGTGCTAG | 7.3
TTAGGTATCGACTATCGGTGAGTGCTA | 0.233

Series 5 — observed: enzyme activity; mode: inhibitor; concentration: 20 µM
Target: Replicase polyprotein 1ab, polymerase (rep, Severe acute respiratory syndrome coronavirus 2, UniProt P0DTD1)
SMILES | inhibition [%]
CCn1ccnc1CC1COc2ccccc2O1 (stereo not drawn) | 3.36
COc1c(O)cc2c(c1O)[C@@H]1O[C@H](CO)[C@@H](O)[C@H](O)[C@H]1OC2=O | 9.41
C[C@@H]1O[C@@H]1P(=O)(O)O | 9.31
O=C(NCC1CCOCC1)c1cnc(Nc2ccc(Cl)cc2Cl)nc1C(F)(F)F | -3.15
N[C@@H](C(=O)O)c1ccc(C(=O)O)c(O)c1 (racemic) | 2.88
Cc1cc(C(=O)Nc2cccc(C(=O)Nc3cccc(C(F)(F)F)c3)c2)on1 | -0.55
CN(C)C(=O)Oc1cc(OC(=O)N(C)C)cc(C(O)CNC(C)(C)C)c1 (stereo not drawn) | -3.91
COc1cc2cc(c1Cl)N(C)C(=O)C[C@H](OC(=O)C(C)C)[C@]1(C)O[C@@H]1[C@H](C)[C@@H]1C[C@@](O)(NC(=O)O1)[C@H](OC)/C=C/C=C(\C)C2 | 3.72
CCCN1CCO[C@@H]2c3cc(O)ccc3OC[C@H]21 | 8.18
COc1ccc([C@@H]2CC(=O)c3c(O)cc(O)cc3O2)cc1O | -3.24
O=C(NC1CCNCC1)[C@@H]1CC[C@@H]2CN1C(=O)N2OS(=O)(=O)O | -4.04
CCCCCCCCCCCC[N+](C)(C)CCOc1ccccc1 | 13
COc1cccc2c1C(=O)c1c(O)c3c(c(O)c1C2=O)C[C@@](O)(C(=O)CO)C[C@@H]3O[C@H]1C[C@H](N)[C@H](O[C@@H]2CCCCO2)[C@H](C)O1 | 56.1
CCCCc1ncc(/C=C(\Cc2cccs2)C(=O)O)n1Cc1ccc(C(=O)O)cc1 | -5.23
C[C@H](CCC(=O)O)[C@H]1CC[C@H]2[C@@H]3[C@H](O)C[C@@H]4C[C@H](O)CC[C@]4(C)[C@H]3CC[C@]12C | -1.66
N[C@@H](CSC(c1ccccc1)(c1ccccc1)c1ccccc1)C(=O)O | 0.74
Cc1cc(C(=O)N2Cc3cnn(C)c3Nc3ccccc32)ccc1CNC(=O)N1CCC[C@H]1C(=S)N1CCCN(C)CC1 | -0.77
C=CC[N+]1([C@H]2C[C@H]3[C@@H]4CC[C@H]5C[C@H](O)[C@@H](N6CCOCC6)C[C@]5(C)[C@H]4CC[C@]3(C)[C@H]2OC(C)=O)CCCC1 | -0.89
Cc1nc2sccn2c(=O)c1CCN1CCC(=C(c2ccccc2)c2ccc(F)cc2)CC1 | 0.16
O=C1NCCN1c1ncc([N+](=O)[O-])s1 | -6.24
N[C@H](C(=O)O)[C@@H]1CC(Cl)=NO1 | 1.58

A few entries again (series 5):
SMILES | inhibition [%]
COc1ccc([C@@H]2CC(=O)c3c(O)cc(O)cc3O2)cc1O | -3.24
O=C(NC1CCNCC1)[C@@H]1CC[C@@H]2CN1C(=O)N2OS(=O)(=O)O | -4.04
CCCCCCCCCCCC[N+](C)(C)CCOc1ccccc1 | 13
COc1cccc2c1C(=O)c1c(O)c3c(c(O)c1C2=O)C[C@@](O)(C(=O)CO)C[C@@H]3O[C@H]1C[C@H](N)[C@H](O[C@@H]2CCCCO2)[C@H](C)O1 | 56.1
CCCCc1ncc(/C=C(\Cc2cccs2)C(=O)O)n1Cc1ccc(C(=O)O)cc1 | -5.23
C[C@H](CCC(=O)O)[C@H]1CC[C@H]2[C@@H]3[C@H](O)C[C@@H]4C[C@H](O)CC[C@]4(C)[C@H]3CC[C@]12C | -1.66
N[C@@H](CSC(c1ccccc1)(c1ccccc1)c1ccccc1)C(=O)O | 0.74
Cc1cc(C(=O)N2Cc3cnn(C)c3Nc3ccccc32)ccc1CNC(=O)N1CCC[C@H]1C(=S)N1CCCN(C)CC1 | -0.77
